Published values from different studies.
A part holds a random share of what one study measured. Changes are numbered by the printed parent chain.

Set 1 — method: RNAcompete; molecule type: RNA; matrix: in vitro; tested at: 20 nM; setting: 7-mer, probes averaged, single round; baseline: mean of 7-mers; direction: higher = stronger binding
Target: PABPC1L2, full length, GST fusion (mouse, UniProt A0ABA7IW68)
Target sequence (chain): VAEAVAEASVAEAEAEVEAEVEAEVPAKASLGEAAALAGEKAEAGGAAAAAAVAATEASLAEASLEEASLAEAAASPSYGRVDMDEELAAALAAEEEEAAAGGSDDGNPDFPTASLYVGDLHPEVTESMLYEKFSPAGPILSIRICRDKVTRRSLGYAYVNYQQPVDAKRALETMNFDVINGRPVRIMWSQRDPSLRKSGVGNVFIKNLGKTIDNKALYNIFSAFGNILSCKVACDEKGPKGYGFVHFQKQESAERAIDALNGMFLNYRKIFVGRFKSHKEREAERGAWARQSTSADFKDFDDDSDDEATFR
| Strand | 7-mer Z-score |
| --- | --- |
| CGGCUAA | -0.104 |
| CUUACGU | -0.311 |
| CGCAAAG | -0.113 |
| GCGCUCA | -0.258 |
| GUGCAUU | -0.0428 |
| CGGUAGA | 0.0877 |
| CAGGGUU | -0.162 |
| GAAGUCU | -0.275 |
| UGCCACG | -0.186 |
| AUCAUCG | -0.211 |
| CGCUAGC | -0.266 |
| UCUACUU | -0.248 |
| UUAUCUA | -0.166 |
| CCAUGUA | -0.0971 |
| GGCGUGC | 0.0569 |
| GCUCUAC | -0.22 |
| CUGGAUA | 0.00436 |
| CUAGUAA | -0.021 |
| ACCGCAC | -0.162 |
| UAAGAAC | 0.0478 |
| CUGUCAU | -0.22 |
| ACGAUUC | -0.155 |
| CCAACAA | 0.352 |
| CACACAA | 0.171 |

Set 2 — method: RNA Bind-n-Seq; molecule type: RNA; matrix: in vitro; tested at: 365 nM; baseline: no-protein control; direction: higher = stronger binding
Target: RNA binding protein fox-1 homolog 2, RRM domain, GST-SBP tag (RBFOX2, Homo sapiens, UniProt O43251-10, residues 100-194)
Setting: natural RNA segment, single round, ends assumed
Shared flanks, not repeated: GGGAGUUCUACAGUCCGACGAUC … UGGAAUUCUCGGGUGCCAA
Residues (chain): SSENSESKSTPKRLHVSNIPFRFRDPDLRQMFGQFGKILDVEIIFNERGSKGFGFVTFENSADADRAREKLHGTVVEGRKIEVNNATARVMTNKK
| Strand | RBNS enrichment (R) |
| --- | --- |
| AUAACUAAACUGAAUAUCAUCCCAUAUUGAUUUUAGGAAUUGACUCUAAAACUCUGUGCAGAAUCUUGUGUUGGGAUUGUAUCUUGACAUUCCUGUUGUGUUAUUUUUCU | 0.529 |
| CCUGCUGUAUUUGUUGUGUAACAUAAAUAAGCCUUCUGAGAAGCAGGGUGAAUAAAGUUUAGGGAGCUGGGACACCUGGUCCUGCUAGCUGGACCACUGGCUCAUCAUGC | 0.331 |
| UCAAUGUCACUUCCUUCUCUAGGAUCUCUCAGAUUCUAUCUCCCCAAGACAGGCAGGGAAAUUCUAAUUUCUCUCUUAAGAAAGUAAAUUUCCACUUCACCAGCAAUAAC | 0.299 |
| AAUUUUAUUCGUAGAAAUCAGUAGAAAAAAAAAGUCUUGGGAACCUUCCAUCUGAUUUGCCUGGCCAUGCCAUCCAGUCCUUGUACAUAUAUACCUUGGAGUCCCAUACA | 0.462 |
| UUCAUUUACUCACCAUAUUUGAAUUGGCCUGAACAGAUGUAAAUCGGGAAGGAUGGGAAAAACUGCAGUCACCAACAAUGAUUAAUCAGCUGUUGCAGGCAGUGUCUUAA | 0.276 |
| GACAUGUGCAGAUGAAAUGUCAAUAUAAGAAAAAUCAAGGUAUUUGGGAAACAUGGGCAUAAUCAGGUAGUUUUGCUAAAAUUCCUCUUCCUUGGUCUACAUAAAGAAGA | 1.1 |
| AGUCUUACUUUAUCUUACUAUACUUCACAAAGGUUCUAAAAUGUGAAGAGUUUACUUGGAUUGCAGUAGCCCAUUGGUUGUUCAUAUAUUUAAAUAAAAUGGUCUACAAA | 0.583 |
| GCACUUGUACCUCCCUGGCAUACUGAGAAUUCCUGGGUCCAAUCAAAGGCCCUGACGGGCCCUGUCUUCAGGUUCUAGAAACUACCAGAAGAAGCUUCUUCCAUCUUAUC | 0.279 |
| GCUUGGAAAAUAGCUAUAUUCAACAAAAAUCUUCAAAGACUGGUUUCUUUUUUAAAAGAAAAAACUUGAAAGAACACUUCUAAGCCUAAGUGUGUGAUACAGUUUGUUAC | 0.559 |
| UUACUUGUGAAAAUGGCCAUCUUUAAGCAUAUUUAUUUUCUGCCACUUUAUUUAAAGGCAAGCAAUAUUUUCUUGAUCAUAAAUAUUUUGUAAUGAAAUACUUCCUCUUU | 0.425 |
| AAUAAAUCUAUUAGGGCCAGGGCCUGGAGACUGGUUCUAAAACUCACAAAUUGAGGAGUGAAAUAGGAGACUGCAUGCUGGAUUUCAUGAUGAAAAUUUAUACUUUCACA | 6.14 |
| CCACCCUCAUUACAUCAUCAGGACUUGAAGCCAAGGGUUAACCCAGCAAGCUACAAAGAGGGUGUGUCACACUGAAACUCAAUAGUUGAGUUUGGCUGUUGUUGCAGGAA | 0.377 |

Set 3 — method: protein-binding microarray; molecule type: double-stranded DNA, one strand shown; matrix: in vitro; tested at: 250 nM; setting: 60-bp whole probe; added: salmon DNA 0.4 mg/ml; baseline: random background probes; direction: higher = stronger binding; shared flanks, not repeated: GCCTAGCAC … GTCTTGATTCGCTTGACGCTGCTG
Target: Interferon regulatory factor 7, full length, phosphomimetic (IRF7, Homo sapiens, UniProt Q92985, residues 1-503, S101K/S471D/S472D/S475D/S476D/S477D/S483D/S484D/S487D)
Target sequence (chain): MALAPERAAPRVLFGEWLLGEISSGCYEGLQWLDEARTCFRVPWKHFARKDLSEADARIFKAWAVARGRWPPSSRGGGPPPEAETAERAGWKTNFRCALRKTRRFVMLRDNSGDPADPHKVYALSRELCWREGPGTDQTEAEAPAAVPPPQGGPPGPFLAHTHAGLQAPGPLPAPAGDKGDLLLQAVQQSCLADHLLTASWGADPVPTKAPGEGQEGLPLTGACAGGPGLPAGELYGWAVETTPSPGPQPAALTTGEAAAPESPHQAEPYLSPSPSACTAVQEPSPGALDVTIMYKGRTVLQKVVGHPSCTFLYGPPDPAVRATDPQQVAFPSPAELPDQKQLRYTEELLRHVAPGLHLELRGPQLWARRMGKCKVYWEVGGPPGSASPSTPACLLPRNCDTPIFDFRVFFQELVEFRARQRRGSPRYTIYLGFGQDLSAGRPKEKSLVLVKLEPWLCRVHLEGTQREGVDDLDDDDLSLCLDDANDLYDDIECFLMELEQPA
| Strand | log fluorescence |
| --- | --- |
| TTAGATTTCAGACTGGATAAGTGCTAG | 0.473 z-score |
| TCAAGACTTGATTTTGGACTGTGCTAG | -0.139 z-score |
| TCAACTCTGTTTTCGCTTACTGTGCTA | 1.4 z-score |
| GACGGACTGGACACTGGGAACGTGCTA | -0.578 z-score |
| CACTGACACCGATTTCATCACGTGCTA | -0.32 z-score |
| TTAGATATCAGTTTGGATTAGTGCTAG | -0.0906 z-score |
| GACGGTATCGGGTATAGGGACGTGCTA | 0.0437 z-score |
| GACGATGTCAGACTGGAGACGTGCTAG | -0.406 z-score |
| GACGATATCAGTATCGGGACGTGCTAG | -0.0204 z-score |
| TTAGATGTCAGTATCGATTAGTGCTAG | 0.565 z-score |
| TTAGGTTACCTTTCCCTTTAGTGCTAG | 1.44 z-score |
| GACGGTTTCGGGTTTCGGGATGTGCTA | 12 z-score |
| AGTCCTGTCCAAGATGAGGAGTGCTAG | 0.275 z-score |
| TCATCTATCAAAAATACAACTGTGCTA | 0.357 z-score |
| TAGCTTCTCAATTAAAAAAAGTGCTAG | 0.69 z-score |
| TTAGGACTGGACTATCAGTTAGTGCTA | -0.554 z-score |

Set 4 — method: universal PBM; molecule type: double-stranded DNA, one strand shown; matrix: in vitro; tested at: 600 nM; direction: higher = stronger binding
Target: Sal-like protein 4, full length isoform A (SALL4, Homo sapiens, UniProt Q9UJQ4, residues 1-1053)
UniProt Q9UJQ4, sequence (whole entry, looked up): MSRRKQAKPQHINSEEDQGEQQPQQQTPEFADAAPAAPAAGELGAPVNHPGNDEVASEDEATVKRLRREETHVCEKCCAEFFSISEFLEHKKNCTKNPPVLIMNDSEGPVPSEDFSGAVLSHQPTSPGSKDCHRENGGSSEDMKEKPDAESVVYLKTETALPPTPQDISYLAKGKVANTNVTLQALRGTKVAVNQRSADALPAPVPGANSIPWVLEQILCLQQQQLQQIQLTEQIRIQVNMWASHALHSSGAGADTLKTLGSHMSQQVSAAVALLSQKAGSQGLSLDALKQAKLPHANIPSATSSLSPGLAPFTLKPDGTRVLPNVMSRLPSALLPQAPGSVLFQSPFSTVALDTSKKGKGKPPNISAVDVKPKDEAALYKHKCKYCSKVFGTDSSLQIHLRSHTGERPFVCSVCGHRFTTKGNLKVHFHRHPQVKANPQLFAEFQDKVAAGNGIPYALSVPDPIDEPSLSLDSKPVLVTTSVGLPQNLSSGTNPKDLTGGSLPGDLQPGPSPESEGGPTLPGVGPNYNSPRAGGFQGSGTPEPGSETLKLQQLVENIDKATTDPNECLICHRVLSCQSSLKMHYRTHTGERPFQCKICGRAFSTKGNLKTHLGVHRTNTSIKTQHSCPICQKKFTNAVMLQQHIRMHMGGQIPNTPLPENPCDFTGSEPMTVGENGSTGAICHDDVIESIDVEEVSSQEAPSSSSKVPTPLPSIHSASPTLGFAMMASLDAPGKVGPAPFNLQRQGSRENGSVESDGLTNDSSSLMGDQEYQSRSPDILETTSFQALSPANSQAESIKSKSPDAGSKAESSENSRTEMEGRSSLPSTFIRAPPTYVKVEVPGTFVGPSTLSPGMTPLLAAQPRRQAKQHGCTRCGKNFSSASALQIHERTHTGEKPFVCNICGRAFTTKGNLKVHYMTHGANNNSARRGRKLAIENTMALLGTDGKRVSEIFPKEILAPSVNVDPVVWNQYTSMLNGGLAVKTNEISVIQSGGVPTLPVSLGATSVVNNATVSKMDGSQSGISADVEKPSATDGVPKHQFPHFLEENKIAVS
Setting: 8-mer, flanks averaged, mean of replicates
| Strand | E-score |
| --- | --- |
| CTTCAAAA | 0.259 |
| ATGCTATC | 0.0623 |
| CGTCAGCA | -0.108 |
| ATTTACGG | 0.19 |
| CTTCTTAC | -0.119 |
| ACTACCGG | -0.272 |
| GTCTAGTA | 0.117 |
| TAACACGA | 0.153 |
| ATTCTTGA | 0.275 |
| TAGGTAGA | 0.101 |
| AAAAGCGA | 0.105 |
| CTGCTAAA | 0.0321 |
| GTTCGGCA | 0.0381 |
| ACCTCTCT | -0.105 |
| GGGTTACA | -0.0287 |
| CACAGCGA | -0.0836 |
| CTAGGCCA | -0.199 |
| CCTTGGTA | -0.00846 |
| ACTTCTGC | 0.0137 |
| GTAGGGAA | 0.0217 |
| CAGTAGAA | 0.0649 |
| TCAAGTAA | 0.287 |
| AGCTGTAA | 0.0621 |
| AACGAGAC | -0.0474 |
| TGCTGACA | 0.023 |

Set 5 — method: DHFR PCA, dose-response; matrix: yeast; setting: Hill fit, mean, not affinity; added: (+)-ABA, dose series; direction: lower = more sensitive
Target: ABI1, truncated, D143A, DHFR fusion (Arabidopsis thaliana, UniProt P49597)
Starting sequence: PYL1, truncated, DHFR fusion (Arabidopsis thaliana, UniProt Q8VZS8); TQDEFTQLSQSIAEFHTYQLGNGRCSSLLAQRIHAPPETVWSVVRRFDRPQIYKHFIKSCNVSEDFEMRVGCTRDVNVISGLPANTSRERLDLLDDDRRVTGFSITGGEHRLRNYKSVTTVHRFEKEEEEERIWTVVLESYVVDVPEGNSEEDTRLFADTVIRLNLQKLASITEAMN
| Change | ABA EC50 |
| --- | --- |
| I105E | 583 µM |
| D153Q | 18.6 µM |
| I52D | 4.88 µM |
| E109H | 16 µM |
| R155V | 3.06 µM |
| V118Q | 49.2 µM |
| A158L | 2.28 µM |
| R99H | 3.77 µM |
| L29F | 99.4 µM |
| T1R | 2.08 µM |
| Q7G | 2.82 µM |
| Q2S | 1.92 µM |
| E130Y | 5.73 µM |
| T39W | 10.1 µM |
| R132Y | 1.95 µM |
| Q7P | 3.77 µM |
| Y18H | 1.73 µM |
| H55Q | 0.202 µM |
| G102E | 337 µM |
| D75L | 0.827 µM |
| S150H | 34.2 µM |
| E128T | 2.71 µM |
| F5E | 4.43 µM |
| N61D | 1.79 µM |
| K126M | 2.46 µM |

Set 6 — target: CCNA2, cyclin fold, Cln2 fusion (human); method: yeast growth competition, sequencing; matrix: yeast; setting: strong parent motif; baseline: not given; direction: higher = stronger binding
Starting sequence: CDAN1 docking peptide (human); RGARSQLFPPTEA
| Change | normalised enrichment score |
| --- | --- |
| RGARSQLAPPTEA [F8A] | 0.321 |
| RAARSQLFPPTEA [G2A] | 1.12 |
| RGARAQLFPPTEA [S5A] | 4.2 |
| RGAASQLFPPTEA [R4A] | 0.559 |
| RGARSQLFPATEA [P10A] | 1.74 |
| RGARSQLFAPTEA [P9A] | 1.15 |

Set 7 — target: CEBPE, bZIP domain (human); method: DHFR protein complementation; matrix: yeast; baseline: wild-type JUN-FOS pair; direction: higher = stronger binding
Setting: single substitutions, most at no-binding floor
Starting sequence: JUN, bZIP domain (human); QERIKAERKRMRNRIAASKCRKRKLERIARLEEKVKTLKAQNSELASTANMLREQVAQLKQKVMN; partner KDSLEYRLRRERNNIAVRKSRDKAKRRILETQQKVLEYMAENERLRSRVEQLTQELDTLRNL
| Change | binding fitness |
| --- | --- |
| L45F | -1.44 natural log |
| E32I | -1.41 natural log |
| Q55H | -1.35 natural log |
| L38I | -1.33 natural log |
| T37C | -1.09 natural log |
| A49S | -1.36 natural log |
| Q41P | -1.55 natural log |
| K36M | -1.07 natural log |
| L59T | -1.43 natural log |
| S47F | -1.29 natural log |
| K36F | -1.32 natural log |
| E32H | -1.39 natural log |
| T48C | -1.29 natural log |
| R30K | -1.09 natural log |
| V56S | -1.55 natural log |
| I28M | -1.11 natural log |
| V56A | -1.42 natural log |
| E44G | -1.41 natural log |
| I28E | -1.07 natural log |
| L38T | -1.54 natural log |
| T37A | -0.964 natural log |
| V35E | -1.34 natural log |
| I28V | -1.16 natural log |
| S47T | -1.05 natural log |
| A46H | -1.13 natural log |
